# Assay results of several laboratories.
# Every numbered part comes from another study and shows a few of its results, in no order.

# Set 1 — method: RNA Bind-n-Seq; molecule type: RNA; medium: in vitro; tested at: 365 nM; baseline: no-protein control; reading: higher = stronger binding
# Target: RNA binding protein fox-1 homolog 2, RRM domain, GST-SBP tag (RBFOX2, Homo sapiens, UniProt O43251-10, residues 100-194)
# Notes: natural RNA segment, single round, ends assumed
# Shared flanks, not repeated: GGGAGUUCUACAGUCCGACGAUC … UGGAAUUCUCGGGUGCCAA
# Residues (chain): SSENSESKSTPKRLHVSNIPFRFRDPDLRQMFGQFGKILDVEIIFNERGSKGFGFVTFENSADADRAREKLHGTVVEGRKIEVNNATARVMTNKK
Sequence,RBNS enrichment (R)
ACCUGGGCCGCUCAAAUUCAUUCCAGGGAGGAGGCUCCACUGCAUUCUUUGGCUGUGCCCUGAGGGUGCCUGCUCCUUUGUACGGUAACAGUCAAUUUUGAGGUUUCUUU,0.786
GAACUCAGGACCUCUGGGAAAGCAGUCAGUGCUCUUAACCACUGAGCCAUCUCUCCAGCCCCCUAGACCCCCUUUCUUAUCACUCACACAGACACACUGUGUCUUGUGUC,0.203
AGUGAAGAAGUUUUUUUUAAUUUUUGGAUGGGAUAUUCGCAAAUAUCUGUAUUAUACACUAAGCUAUUACAAUGGUACUUAAAAUAAUGUAAAUUUGAAGUCAUUGUUAU,0.974
UUGAAUUAUUUUAUCAUGCUGUUGCUGGGGAAUAUGACUAACCCUUUUGAAGCUACUAAUUUUAUGUCGAGCUUUAAAGUCCAUAAUUGUUAUCUUCAGAAAAUAUUAUU,0.507
UGACAGCUGGAGCUAUAUGGAUGGGUGAUGAGAGACGUUCCCCCAUCCUGUGUCUCCUGCUGUGUGGACACAUGUCACUCCUGCUCCACAUGCCAACAUGGUUCAUUUCC,0.704
AAUUUCUGAAACUGUUUACAAGGAAUUUUGAAAAACAGGGAUGUUUAAAUGAUGCCGGCUCUGUUUUUCUGUAAAUAAAUUUGCAUAUUUUGUAGGACUUUUAAUUGUAA,1.14
AUAGAGUAUAGCUCUGUAGUGGAAUAUGUCUUCUGUAUAACUAGGCUGUUAACCUAUGAUUGUAAAGUAGCUGUAAGAAUUUCCCAGUGAAAUAAAAAAAAAUUUUAAGU,0.881
CUCUCUGAGGCUGGAUGAUCUGGAGGAAGGGGGCAUGGAGCAAAUUUGAGGCUCUGAUUGCUGAGCCAGCCUCCUCCCAGGCGGUUUCCCCAGGACUCUCGUAGGAAAUA,0.584

# Set 2 — method: aptamer microarray, sandwich; molecule type: DNA with 2'F-ANA; medium: in vitro; tested at: 200 nM; with: Cy3 exosite-II aptamer, 400 nM; reading: higher = stronger binding; sequence: GGTTGGTGTGGTTGG
# Target: Prothrombin, mature alpha-thrombin (F2, Homo sapiens, UniProt P00734)
# Notes: whole 15-mer aptamer, many near background
Modification,mean fluorescence intensity
2'F-ANA at 1 2 4 13 15,93 a.u.
2'F-ANA at 6 9 11 14 15,133 a.u.
2'F-ANA at 3 4 5 7 11 12 13,137 a.u.
2'F-ANA at 3 4 5 8 9 10 12 15,61.7 a.u.
2'F-ANA at 4 6 8 10 11 13 15,64.5 a.u.
2'F-ANA at 1 3 5 6 8 12 13,98.4 a.u.
2'F-ANA at 1 5 8 10 12,44.6 a.u.
2'F-ANA at 4 7 10 11,86.6 a.u.
2'F-ANA at 2 3 4 5 8 9 10 12 13 14 15,47 a.u.
2'F-ANA at 1 2 3 6 7 11 12 13 15,273 a.u.
2'F-ANA at 1 4 5 9 11 13 14,44.5 a.u.
2'F-ANA at 6 7 8 9 11 12 14,194 a.u.
2'F-ANA at 5 6 7 8 9 10 12 13 15,71.5 a.u.
2'F-ANA at 1 2 3 5 6 7 9 10 15,62.2 a.u.
2'F-ANA at 1 5 6 10 11 12 14 15,52.5 a.u.
2'F-ANA at 1 2 3 4 5 7 12 13 14 15,49.2 a.u.
2'F-ANA at 4 6 7 9 11 12 13,225 a.u.
2'F-ANA at 1 2 4 7 9 10 11 12 13 14,47.6 a.u.

# Set 3 — method: RNA Bind-n-Seq; molecule type: RNA; medium: in vitro; tested at: 100 nM; baseline: input RNA pool; reading: higher = stronger binding
# Target: RING finger protein unkempt homolog, zinc fingers 1-6, SBP tag (UNK, Homo sapiens, UniProt Q9C0B0, residues 30-357)
# Chain of UniProt Q9C0B0 (30-357, looked up): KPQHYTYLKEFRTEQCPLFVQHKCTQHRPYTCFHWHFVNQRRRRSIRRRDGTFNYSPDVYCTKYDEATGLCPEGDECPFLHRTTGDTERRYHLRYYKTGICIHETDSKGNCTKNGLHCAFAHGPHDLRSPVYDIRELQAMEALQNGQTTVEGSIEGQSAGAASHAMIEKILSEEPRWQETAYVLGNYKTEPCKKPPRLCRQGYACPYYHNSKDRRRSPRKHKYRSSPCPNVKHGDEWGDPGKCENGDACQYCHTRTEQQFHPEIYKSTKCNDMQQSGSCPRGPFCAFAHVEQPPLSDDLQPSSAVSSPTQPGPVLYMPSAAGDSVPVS
# Notes: RNA with constant flanks, vertebrate orthologous sites, ends assumed
# Shared flanks, not repeated: GGGAGUUCUACAGUCCGACGAUC … CAACAGAGGAUUGAGCAUCA
Sequence,bound/input enrichment
AUUUAGAAUGUAUUUGGUUAUAGUUAAUGAUCUCAUUCCCACGUUCCUUUUUCAUUAACGUAGCUGUAAUAGUAUGAAUGAAUAGGAGGUUUGUGCCAGUAGACAUUGUUACUACAUCAG,0.61 ratio
CCCAUGGCUGCUUUGUAUCACCUCAGUGACUUACAGUCCCCCUUGGCAUUUAGUUGGUACUAGAGCCAGUCAUCCUUAACAAAUCUUUUCACAUUUUAUUUCUUUCACAUGUAGUCAUCU,2.53 ratio
GGGUCUACUGACCACUCACCAUUAAUGUCUGGUAUCUGUAAAACACUUUUUUUUUGUUCCUAGUCUUUUUCUUGUACAAUUGAUGUUCUUUAAAAUUGUUAAUGUAUAACAGGGCUUAUG,0.706 ratio
CUAAAGCUUUGUGUUUGGCUGCACCUGCAUAAGCUGCUACAAAUAGAAUAAAGAAUUUCAUAGCCUGUAUCUAUCAUUUUAGAUGCAUGGAAAAAAUGGGCUUUGCACACAAUGGGUUUG,1.9 ratio
AGAAAAUUUUAACCAAGAAUCUGAAGCUAGAAAUACAGGACCGUGGUUAUCUUCCUCGCUUAGAAAUAGAUGCACACCUUUGUUUUCUAGAAGGAGGCGAGAAGGAAGAGAUGAAUCUUC,0.752 ratio
AAUUACACUAAUACUGAAGUUAAAAUUAAAAGGAUAUCCAAGGUGAUGAUAAAGUGUGUGUUGGUAGUUACUAAAAAAACCUUAGCUGUUAUUGCCUUGUAUUUCUAUCCCUUGUUUCAG,0.454 ratio
AGUGUCAUACCAGCAUAUUUACUAGUUUGUGUGCACAGCUGAAAAAAAGAGGUAACUGCUUAGUUAUACUCCACAAAGUCUUUCAGAUUUGUUACCUUUUCAUUCCCACACUGACACUAC,0.399 ratio
GUGUUGGUGCAGAGCAUUCUGUACCAUUGCUCCUCAUCCCUUCUUCAUACCAACUGUCUCUAGUUGUAGGAAUUUAAUAUUUUUUAAAGUUUUACAUUGCUGUAUAUUCAAAGAUUUGUU,0.636 ratio

# Set 4 — method: universal PBM; molecule type: double-stranded DNA, one strand shown; medium: in vitro; tested at: 600 nM; reading: higher = stronger binding
# Target: Sal-like protein 4, full length isoform A (SALL4, Homo sapiens, UniProt Q9UJQ4, residues 1-1053)
# Chain of UniProt Q9UJQ4 (whole entry, looked up): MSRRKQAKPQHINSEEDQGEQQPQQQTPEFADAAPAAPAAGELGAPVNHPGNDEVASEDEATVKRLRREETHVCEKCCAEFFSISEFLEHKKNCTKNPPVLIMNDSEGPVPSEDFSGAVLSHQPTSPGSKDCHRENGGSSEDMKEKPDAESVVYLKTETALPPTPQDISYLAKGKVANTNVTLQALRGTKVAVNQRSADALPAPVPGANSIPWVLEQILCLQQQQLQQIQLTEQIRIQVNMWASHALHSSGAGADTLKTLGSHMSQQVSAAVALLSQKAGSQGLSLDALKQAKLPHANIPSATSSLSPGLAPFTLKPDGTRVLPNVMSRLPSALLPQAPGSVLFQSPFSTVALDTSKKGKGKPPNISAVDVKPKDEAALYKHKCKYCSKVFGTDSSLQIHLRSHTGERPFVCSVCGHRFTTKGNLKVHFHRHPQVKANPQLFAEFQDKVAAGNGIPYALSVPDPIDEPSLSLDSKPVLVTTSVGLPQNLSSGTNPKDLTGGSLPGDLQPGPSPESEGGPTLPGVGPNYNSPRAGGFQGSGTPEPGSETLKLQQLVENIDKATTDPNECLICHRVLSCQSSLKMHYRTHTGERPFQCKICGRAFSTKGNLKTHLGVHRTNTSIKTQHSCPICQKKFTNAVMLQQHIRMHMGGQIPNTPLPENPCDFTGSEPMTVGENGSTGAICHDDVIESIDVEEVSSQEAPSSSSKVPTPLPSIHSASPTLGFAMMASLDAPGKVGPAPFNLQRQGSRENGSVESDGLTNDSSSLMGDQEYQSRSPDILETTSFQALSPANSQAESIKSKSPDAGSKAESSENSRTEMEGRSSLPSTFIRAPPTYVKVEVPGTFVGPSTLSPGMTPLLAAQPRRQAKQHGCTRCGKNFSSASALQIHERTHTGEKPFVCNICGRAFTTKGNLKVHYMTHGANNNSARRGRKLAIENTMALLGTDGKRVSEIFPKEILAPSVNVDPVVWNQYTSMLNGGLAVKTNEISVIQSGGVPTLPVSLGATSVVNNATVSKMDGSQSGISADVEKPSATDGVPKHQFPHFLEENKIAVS
# Notes: 8-mer, flanks averaged, mean of replicates
Sequence,E-score
AACCACAT,0.192
ATGGTTGA,0.0816
GACCGCGA,-0.344
CGCGTGCC,-0.36
CACATGTG,-0.0763
CGCCTTAC,-0.0604
ACCAGAGT,-0.0829
CATAACCA,0.25
CGACTGGC,-0.285
CATTGGTA,0.0857
CCAATTCG,-0.0128
CCCATTAG,-0.272
CAGAATTA,0.167
CGTAGGTA,-0.126
ACGAAGTA,0.0415
ACACAAGC,-0.0564
AACGTCGC,-0.192
GACTGGGC,-0.187
CGGTTTAA,-0.0141
CCCACCAA,-0.0938
GTGACTTA,0.0799
CTGGATGC,-0.27

# Some of these lines once more (set 4):
Sequence,E-score
CACATGTG,-0.0763
CGCCTTAC,-0.0604
ACCAGAGT,-0.0829
CATAACCA,0.25
